Measurements of several laboratories.
Compare with care: the assays were run in different laboratories.
Target: Interleukin-1 receptor-associated kinase 1 (IRAK1, Homo sapiens, UniProt P51617)
UniProt P51617, sequence (whole entry, looked up): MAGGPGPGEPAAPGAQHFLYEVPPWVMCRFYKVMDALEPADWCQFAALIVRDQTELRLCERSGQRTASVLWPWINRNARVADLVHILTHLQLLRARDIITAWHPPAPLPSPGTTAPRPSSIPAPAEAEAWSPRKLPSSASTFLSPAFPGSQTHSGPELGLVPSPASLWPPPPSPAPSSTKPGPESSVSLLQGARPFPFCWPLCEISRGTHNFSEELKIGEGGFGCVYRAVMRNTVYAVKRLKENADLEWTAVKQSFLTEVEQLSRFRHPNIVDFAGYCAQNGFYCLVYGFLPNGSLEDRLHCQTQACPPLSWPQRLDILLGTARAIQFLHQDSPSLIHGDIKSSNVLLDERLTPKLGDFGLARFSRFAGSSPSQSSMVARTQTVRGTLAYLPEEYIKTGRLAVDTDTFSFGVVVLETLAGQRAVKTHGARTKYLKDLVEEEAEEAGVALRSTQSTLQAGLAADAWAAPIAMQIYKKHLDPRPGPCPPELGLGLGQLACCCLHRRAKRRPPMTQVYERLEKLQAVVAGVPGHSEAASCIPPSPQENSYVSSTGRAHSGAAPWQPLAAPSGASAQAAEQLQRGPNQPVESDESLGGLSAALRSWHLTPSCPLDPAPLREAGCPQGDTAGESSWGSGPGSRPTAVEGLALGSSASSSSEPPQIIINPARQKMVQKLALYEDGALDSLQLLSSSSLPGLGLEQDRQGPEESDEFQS

SMILES | assay | test system | conditions | scale | endpoint | result
COc1cc(-c2cncc3c2CN(C)Cc2cc(N4CCNCC4)ccc2-3)cc(OC)c1OC | kinase activity |  | 1 µM, human enzyme, added: ATP 10 µM | reference: DMSO control | remaining activity | 106%
O=C(NC1CCC1)c1ccc2nc(-c3cccc(NS(=O)(=O)NCCN4CCCCC4)c3)cn2c1 | enzyme activity |  | 10 µM |  | remaining activity | 73%
CNc1ncc2c(/C=C/C(=O)N3CCC(OC)CC3)nn(Cc3cccc(C(F)(F)F)c3)c2n1 | kinase activity, inhibitor |  | 1 µM | reference: untreated control | remaining activity | 106%
COc1cc(N2CCN(C)CC2)ccc1Nc1nc(N)n(C(=O)NCc2ccccc2S(=O)(=O)C(C)C)n1 | enzyme activity |  | 10 µM | reference: control | remaining activity | 25%
C=CC(=O)N1CCC(COCC(=O)N2CCN(c3nc(-c4cnc(N)nc4C(F)F)nc(N4CCOC[C@@H]4C)n3)CC2)CC1 | KINOMEscan |  | 1 µM |  | remaining binding | 100%
CC[C@@H]1[C@H](F)C(=O)N[C@@H]1COc1nccc2cc(C(N)=O)c(OC)cc12 | ATP-site probe binding, ActivX profiling | THP-1 cell lysate | 0.01 mM, Lys2 site |  | inhibition | 2.3%
COc1cc(N2CCN(C)CC2)ccc1Nc1nc(N)n(C(=O)NCc2c(Cl)cccc2Cl)n1 | enzyme activity |  | 10 µM | reference: control | remaining activity | 7.4%
C=CC(=O)N1CCC[C@@H](n2nc(-c3ccc(Oc4ccccc4)cc3)c3c(N)ncnc32)C1 |  |  | 0.1 µM |  | remaining activity | 259%

Repeated from above:
SMILES | assay | test system | conditions | scale | endpoint | result
COc1cc(N2CCN(C)CC2)ccc1Nc1nc(N)n(C(=O)NCc2ccccc2S(=O)(=O)C(C)C)n1 | enzyme activity |  | 10 µM | reference: control | remaining activity | 25%
